Measurements pooled from the literature.
A part holds a random share of what one study measured. Several values in a cell are separate wells, animals, samples, runs or records.
Sequence of UniProt P10721 (whole entry, unmodified, looked up): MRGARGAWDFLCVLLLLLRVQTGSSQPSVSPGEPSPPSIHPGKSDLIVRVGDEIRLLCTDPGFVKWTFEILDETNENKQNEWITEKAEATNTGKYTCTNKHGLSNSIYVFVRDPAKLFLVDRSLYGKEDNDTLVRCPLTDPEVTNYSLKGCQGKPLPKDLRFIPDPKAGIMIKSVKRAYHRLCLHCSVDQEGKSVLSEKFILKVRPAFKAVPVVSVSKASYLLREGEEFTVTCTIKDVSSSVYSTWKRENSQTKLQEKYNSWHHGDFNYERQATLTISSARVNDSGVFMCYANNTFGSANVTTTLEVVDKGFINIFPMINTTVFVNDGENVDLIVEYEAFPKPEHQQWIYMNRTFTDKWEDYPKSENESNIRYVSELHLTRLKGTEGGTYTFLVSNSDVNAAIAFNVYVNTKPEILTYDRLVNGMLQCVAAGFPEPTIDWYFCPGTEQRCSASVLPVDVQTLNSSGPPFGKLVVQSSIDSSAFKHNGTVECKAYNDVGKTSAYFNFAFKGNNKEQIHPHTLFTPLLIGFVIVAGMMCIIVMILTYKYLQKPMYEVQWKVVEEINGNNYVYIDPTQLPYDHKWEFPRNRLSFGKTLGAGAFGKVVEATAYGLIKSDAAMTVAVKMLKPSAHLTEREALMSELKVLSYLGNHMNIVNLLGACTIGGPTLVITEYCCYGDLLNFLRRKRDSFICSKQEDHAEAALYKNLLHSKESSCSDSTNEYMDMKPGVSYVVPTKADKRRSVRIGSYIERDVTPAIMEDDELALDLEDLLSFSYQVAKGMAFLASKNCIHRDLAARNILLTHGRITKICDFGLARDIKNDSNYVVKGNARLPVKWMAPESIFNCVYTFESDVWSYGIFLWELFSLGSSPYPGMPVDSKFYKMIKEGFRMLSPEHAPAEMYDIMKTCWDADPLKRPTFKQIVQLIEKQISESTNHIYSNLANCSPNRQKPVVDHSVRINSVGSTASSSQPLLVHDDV
Sequence of UniProt Q00532 (whole entry, looked up): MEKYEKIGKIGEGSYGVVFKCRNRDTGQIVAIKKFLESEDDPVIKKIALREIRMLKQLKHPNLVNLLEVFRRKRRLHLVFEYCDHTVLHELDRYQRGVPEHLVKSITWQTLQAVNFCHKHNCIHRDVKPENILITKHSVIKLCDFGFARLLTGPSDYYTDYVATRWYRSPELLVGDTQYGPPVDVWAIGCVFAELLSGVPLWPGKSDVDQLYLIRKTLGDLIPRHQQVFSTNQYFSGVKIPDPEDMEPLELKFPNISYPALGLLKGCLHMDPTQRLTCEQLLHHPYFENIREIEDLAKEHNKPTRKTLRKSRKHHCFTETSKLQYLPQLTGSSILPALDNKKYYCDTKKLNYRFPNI
Sequence of UniProt Q13976 (whole entry, looked up): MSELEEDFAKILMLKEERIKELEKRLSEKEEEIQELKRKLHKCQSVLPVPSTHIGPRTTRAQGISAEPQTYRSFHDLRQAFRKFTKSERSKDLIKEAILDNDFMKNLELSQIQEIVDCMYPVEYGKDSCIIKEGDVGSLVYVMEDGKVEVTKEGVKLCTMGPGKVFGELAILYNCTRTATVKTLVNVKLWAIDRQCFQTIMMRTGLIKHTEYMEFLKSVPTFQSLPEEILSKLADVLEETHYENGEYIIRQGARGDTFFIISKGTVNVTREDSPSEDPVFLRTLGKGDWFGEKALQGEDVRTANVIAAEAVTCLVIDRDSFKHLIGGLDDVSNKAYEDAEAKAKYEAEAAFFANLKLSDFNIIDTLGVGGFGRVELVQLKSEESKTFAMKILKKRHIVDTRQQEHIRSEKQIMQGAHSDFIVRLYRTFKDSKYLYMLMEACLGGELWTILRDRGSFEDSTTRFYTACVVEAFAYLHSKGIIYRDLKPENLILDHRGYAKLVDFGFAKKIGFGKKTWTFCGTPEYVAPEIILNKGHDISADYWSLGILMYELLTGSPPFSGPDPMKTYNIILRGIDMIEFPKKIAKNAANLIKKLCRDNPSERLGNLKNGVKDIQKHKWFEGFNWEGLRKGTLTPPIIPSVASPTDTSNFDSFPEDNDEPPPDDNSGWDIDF
Sequence of UniProt O00750 (whole entry, looked up): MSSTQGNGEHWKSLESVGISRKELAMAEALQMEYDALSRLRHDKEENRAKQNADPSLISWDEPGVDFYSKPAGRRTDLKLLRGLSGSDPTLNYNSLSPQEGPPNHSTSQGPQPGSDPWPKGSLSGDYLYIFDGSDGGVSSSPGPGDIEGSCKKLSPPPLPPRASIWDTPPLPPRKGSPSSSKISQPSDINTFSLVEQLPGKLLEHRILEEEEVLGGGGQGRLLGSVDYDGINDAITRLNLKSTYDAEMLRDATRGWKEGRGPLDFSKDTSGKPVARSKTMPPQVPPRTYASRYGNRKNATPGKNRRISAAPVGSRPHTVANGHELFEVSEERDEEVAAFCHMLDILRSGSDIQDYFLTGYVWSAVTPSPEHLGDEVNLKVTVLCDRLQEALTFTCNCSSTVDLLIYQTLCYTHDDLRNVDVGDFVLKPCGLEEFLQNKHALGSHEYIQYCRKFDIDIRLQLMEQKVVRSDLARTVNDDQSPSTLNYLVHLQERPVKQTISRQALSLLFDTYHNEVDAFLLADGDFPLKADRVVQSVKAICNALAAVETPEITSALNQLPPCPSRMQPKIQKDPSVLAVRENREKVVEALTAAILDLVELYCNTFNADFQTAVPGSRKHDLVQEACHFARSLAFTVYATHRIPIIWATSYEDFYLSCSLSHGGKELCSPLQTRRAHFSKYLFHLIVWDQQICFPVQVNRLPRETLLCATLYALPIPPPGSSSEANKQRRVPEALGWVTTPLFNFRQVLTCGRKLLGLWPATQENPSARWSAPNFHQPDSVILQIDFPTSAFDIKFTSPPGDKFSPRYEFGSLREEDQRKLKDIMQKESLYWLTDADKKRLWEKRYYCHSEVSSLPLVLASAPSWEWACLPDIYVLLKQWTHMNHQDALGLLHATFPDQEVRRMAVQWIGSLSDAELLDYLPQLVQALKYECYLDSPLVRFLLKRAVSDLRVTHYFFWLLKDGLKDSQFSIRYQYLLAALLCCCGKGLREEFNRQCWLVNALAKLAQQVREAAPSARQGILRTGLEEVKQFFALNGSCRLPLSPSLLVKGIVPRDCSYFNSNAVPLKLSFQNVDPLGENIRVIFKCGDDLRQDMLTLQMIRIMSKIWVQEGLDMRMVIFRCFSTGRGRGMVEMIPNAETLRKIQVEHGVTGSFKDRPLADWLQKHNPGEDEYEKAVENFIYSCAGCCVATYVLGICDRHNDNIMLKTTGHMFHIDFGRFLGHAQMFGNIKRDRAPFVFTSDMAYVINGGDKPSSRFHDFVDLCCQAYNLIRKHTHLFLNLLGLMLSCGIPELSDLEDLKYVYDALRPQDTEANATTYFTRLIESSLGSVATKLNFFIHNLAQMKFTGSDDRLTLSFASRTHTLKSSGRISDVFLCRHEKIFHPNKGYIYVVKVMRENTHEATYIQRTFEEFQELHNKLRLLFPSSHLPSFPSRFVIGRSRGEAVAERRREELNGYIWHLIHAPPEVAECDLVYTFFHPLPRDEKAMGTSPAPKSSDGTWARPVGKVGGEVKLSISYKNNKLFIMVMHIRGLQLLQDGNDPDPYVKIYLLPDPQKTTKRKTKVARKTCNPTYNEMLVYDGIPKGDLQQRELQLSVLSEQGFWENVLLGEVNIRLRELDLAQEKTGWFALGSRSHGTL
Sequence of UniProt Q9NRM7 (whole entry, looked up): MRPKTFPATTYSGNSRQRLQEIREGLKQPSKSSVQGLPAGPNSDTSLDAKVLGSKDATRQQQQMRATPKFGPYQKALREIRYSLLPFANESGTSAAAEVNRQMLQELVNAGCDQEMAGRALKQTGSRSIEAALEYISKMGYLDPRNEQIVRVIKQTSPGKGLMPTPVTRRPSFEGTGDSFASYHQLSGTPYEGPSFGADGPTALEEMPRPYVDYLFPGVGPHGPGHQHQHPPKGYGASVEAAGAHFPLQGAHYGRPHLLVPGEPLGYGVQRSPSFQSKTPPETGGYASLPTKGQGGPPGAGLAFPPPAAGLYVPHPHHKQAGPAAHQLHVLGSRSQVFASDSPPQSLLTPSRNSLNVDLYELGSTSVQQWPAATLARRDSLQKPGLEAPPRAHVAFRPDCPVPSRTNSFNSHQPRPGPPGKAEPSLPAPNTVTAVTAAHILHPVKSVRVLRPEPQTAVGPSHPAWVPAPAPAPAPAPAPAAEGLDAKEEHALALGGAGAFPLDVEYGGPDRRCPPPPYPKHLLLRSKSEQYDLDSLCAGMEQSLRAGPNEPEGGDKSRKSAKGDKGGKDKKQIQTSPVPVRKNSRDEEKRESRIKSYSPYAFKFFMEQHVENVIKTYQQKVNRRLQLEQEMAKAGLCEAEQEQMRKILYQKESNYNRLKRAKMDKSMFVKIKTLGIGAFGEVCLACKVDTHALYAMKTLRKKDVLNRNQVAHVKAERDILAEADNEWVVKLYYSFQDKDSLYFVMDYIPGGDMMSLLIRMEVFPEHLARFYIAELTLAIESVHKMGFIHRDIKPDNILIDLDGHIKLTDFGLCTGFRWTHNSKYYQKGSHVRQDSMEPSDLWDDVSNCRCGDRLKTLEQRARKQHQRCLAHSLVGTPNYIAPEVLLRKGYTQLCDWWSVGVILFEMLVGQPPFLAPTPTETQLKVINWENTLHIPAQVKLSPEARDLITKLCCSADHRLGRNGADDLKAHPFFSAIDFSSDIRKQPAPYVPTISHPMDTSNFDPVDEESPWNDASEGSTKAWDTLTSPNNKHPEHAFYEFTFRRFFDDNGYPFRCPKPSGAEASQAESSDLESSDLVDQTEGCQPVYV

Study 1
Compound: Cn1cnc(Cn2ccc3ccc(CNCc4[nH]c5ccccc5c4[C@H]4NC(=O)c5ccc(O)cc54)cc32)c1
Observed: binding
Action: competitor
Technique: NanoBRET
Cells: HEK293
KRAS G12C: GTPase KRas (KRAS, Homo sapiens, UniProt P01116, G12C)
KRAS: GTPase KRas (KRAS, Homo sapiens, UniProt P01116)
target | conditions | scale | normalized BRET
KRAS G12C | 247 nM, 1 h | baseline: vehicle and 20 µM BI compound | 85% and 89.9% and 90.2%
KRAS G12C | 20 µM, 4 h | baseline: vehicle and 20 µM BI compound | 0.36% and 0.58% and 1.71% and -2.64%
KRAS G12C | 2.22 µM, 3 h | baseline: vehicle and 20 µM BI compound | 13.8% and 14.3% and 15.3% and 14.7%
KRAS G12C | 3.05 nM, 3 h | baseline: vehicle and 20 µM BI compound | 100% and 84.8% and 114% and 88.8%
KRAS | 6.67 µM |  | 3.27% and 2.4% and 3.59% and 2.87%
KRAS G12C | 741 nM, 1 h | baseline: vehicle and 20 µM BI compound | 49.9% and 54.4% and 57.1% and 51.9%
KRAS | 82.2 nM |  | 83.3% and 135% and 100% and 99.5%
KRAS | 27.4 nM |  | 82.6% and 100% and 104% and 93.5%
KRAS G12C | 741 nM, 2 h | baseline: vehicle and 20 µM BI compound | 42% and 47.2% and 46.5% and 47.7%
KRAS G12C | 27.4 nM, 2 h | baseline: vehicle and 20 µM BI compound | 108% and 111% and 101% and 112%

Study 2
Cell line: mouse MPNST tumor cells
Technique: high-content nuclear imaging
Measured: cell number
Tested at: 10 µM
Time: 12 h
Notes: mean of 2 replicates
Baseline: plate mean
Reading: higher = more cells
SMILES | nuclei count
O=C(NCCO)c1cc(C(=O)NCCO)cc(C(=O)NCCO)c1 | 1.07 z-score
CCn1c(-c2nonc2N)nc2cnc(Oc3cccc(NC(=O)c4ccc(OCCN5CCOCC5)cc4)c3)cc21 | -6.21 z-score
COc1c(Cl)cc2c([nH]c3cnccc32)c1NC(=O)c1cccnc1C | 0.953 z-score
O=C1NCCN1c1ncc([N+](=O)[O-])s1 | 2.17 z-score
COC(=O)c1cnn(-c2ccc(F)cc2F)c1C=NNC(=S)NC(C)(C)C | 0.0336 z-score
O=S(=O)(c1ccccc1)N(CC(F)(F)F)c1ccc(C(O)(C(F)(F)F)C(F)(F)F)cc1 | 2.89 z-score
O=C(Nc1ccc(Cl)nc1)c1ccc(Cl)cc1 | 1.91 z-score
CC(C(=O)O)c1ccc(-c2ccccc2)c(F)c1 (stereo not shown) | 0.897 z-score and 0.545 z-score
CN(Cc1ccccc1)C(=O)[C@H](Cc1ccc2ccccc2c1)NC(=O)[C@@H]1CCCN1C(=O)Nc1ccccc1[N+](=O)[O-] | 3.47 z-score
COc1ccc(C2CNC(=O)C2)cc1OC1CCCC1 (stereo not shown) | 0.779 z-score
CN(C)CCOC(c1ccccc1)c1ccccc1.Cn1c(=O)c2[nH]c(Cl)nc2n(C)c1=O | 3.7 z-score

Study 3
Target: Serine/threonine-protein kinase BRSK1 (BRSK1, Homo sapiens, UniProt Q8TDC3)
Observed: enzyme activity
Action: inhibitor
Tested at: 0.5 µM
Baseline: control
Residues (Q8TDC3 1-778): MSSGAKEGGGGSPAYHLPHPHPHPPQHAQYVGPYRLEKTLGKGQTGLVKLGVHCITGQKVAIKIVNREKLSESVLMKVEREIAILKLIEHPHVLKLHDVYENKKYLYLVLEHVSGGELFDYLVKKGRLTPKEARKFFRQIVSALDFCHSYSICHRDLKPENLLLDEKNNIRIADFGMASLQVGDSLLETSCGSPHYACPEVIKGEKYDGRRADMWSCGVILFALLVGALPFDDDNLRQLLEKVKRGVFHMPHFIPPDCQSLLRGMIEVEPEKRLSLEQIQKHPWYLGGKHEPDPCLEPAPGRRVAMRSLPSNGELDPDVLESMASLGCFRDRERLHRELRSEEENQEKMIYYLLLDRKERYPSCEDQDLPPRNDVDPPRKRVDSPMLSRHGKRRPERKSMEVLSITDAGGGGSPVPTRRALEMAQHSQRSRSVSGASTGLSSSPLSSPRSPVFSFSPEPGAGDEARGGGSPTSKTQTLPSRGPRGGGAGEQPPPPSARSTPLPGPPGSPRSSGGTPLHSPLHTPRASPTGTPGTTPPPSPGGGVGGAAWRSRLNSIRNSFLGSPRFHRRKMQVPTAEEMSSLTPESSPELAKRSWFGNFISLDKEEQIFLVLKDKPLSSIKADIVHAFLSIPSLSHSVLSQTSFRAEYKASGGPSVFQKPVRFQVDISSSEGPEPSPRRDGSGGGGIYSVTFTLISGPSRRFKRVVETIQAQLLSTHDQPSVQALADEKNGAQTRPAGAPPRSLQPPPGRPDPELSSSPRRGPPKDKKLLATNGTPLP
Structure (SMILES) | remaining activity
Cc1nc(Nc2ncc(C(=O)Nc3c(C)cccc3Cl)s2)cc(N2CCN(CCO)CC2)n1 | 103%
O=c1cc(N2CCOCC2)oc2c1ccc1ccccc12 | 100%
CCN1/C(=C/C(C)=O)Sc2ccc(OC)cc21 | 89.4%
Cn1cnc2cc3c(Nc4cccc(Br)c4)ncnc3cc21 | 81.6%
CC(C)c1nn(-c2c(Cl)cccc2Cl)c2nc(Cc3ccc(OCCO)cc3)[nH]c(=O)c12 | 91.3%
COc1ccc(-c2cnc3c(-c4ccsc4)cnn3c2)cc1 | 81.5%
CC(C)[C@H](CO)Nc1nc(Nc2cccc(Cl)c2)c2ncn(C(C)C)c2n1 | 100%
CC(=O)O/N=C1/C(c2c(O)[nH]c3cc(Br)ccc23)=Nc2ccccc21 | 43.5%
CS(=O)(=O)CCNCc1ccc(-c2ccc3ncnc(Nc4ccc(OCc5cccc(F)c5)c(Cl)c4)c3c2)o1 | 98.6%
CCC(=O)Nc1ccc2ncnc(Nc3cccc(Br)c3)c2c1 | 83.3%

Study 4
SMILES: CC(=O)N1CCC(c2ccc(C(=O)NC(=N)N)cc2C(F)(F)F)CC1
Technique: competition with immobilised ligand
Tested at: 1 µM
target | test | remaining binding [%]
Tyrosine-protein kinase ABL1, phosphorylated (ABL1, Homo sapiens, UniProt P00519, M351T) | cell-free assay | 100
KIT (Homo sapiens, UniProt P10721, L576P) | cell-free assay | 92
PRKG1 (Homo sapiens, UniProt Q13976) | cell-free assay | 100
EPHA5 (Homo sapiens, UniProt P54756) | cell-free assay | 99
PIK3C2B (Homo sapiens, UniProt O00750) | cell-free assay | 95
CILK1 (Homo sapiens, UniProt Q9UPZ9) | binding | 94
CDKL1 (Homo sapiens, UniProt Q00532) | cell-free assay | 100
RIPK1 (Homo sapiens, UniProt Q13546) | cell-free assay | 100
KIT (Homo sapiens, UniProt P10721, V559D/V654A) | cell-free assay | 100
MAP2K7 (Homo sapiens, UniProt O14733) | cell-free assay | 86
Tyrosine-protein kinase ABL1, non-phosphorylated (ABL1, Homo sapiens, UniProt P00519) | cell-free assay | 93
LATS2 (Homo sapiens, UniProt Q9NRM7) | cell-free assay | 100
